Measured values pooled from the literature.
Each numbered part is a random draw from the data of one study; scales do not carry over between parts.

Sample 1
Target: Centromere-binding protein 1, full length, N-terminal tag (CBF1, Saccharomyces cerevisiae, UniProt P17106, residues 1-351)
UniProt P17106, sequence (whole entry, looked up): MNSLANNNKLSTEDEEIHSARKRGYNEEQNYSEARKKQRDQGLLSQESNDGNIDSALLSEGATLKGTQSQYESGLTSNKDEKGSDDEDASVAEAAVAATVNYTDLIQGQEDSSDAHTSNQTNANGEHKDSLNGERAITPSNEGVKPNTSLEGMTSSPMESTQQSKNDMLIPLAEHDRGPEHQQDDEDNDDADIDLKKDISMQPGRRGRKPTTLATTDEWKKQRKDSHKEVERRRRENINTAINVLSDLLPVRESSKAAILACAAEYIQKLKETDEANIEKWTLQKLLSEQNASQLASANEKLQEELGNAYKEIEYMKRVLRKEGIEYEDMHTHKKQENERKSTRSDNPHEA
Method: protein-binding microarray
Molecule type: double-stranded DNA, one strand shown
Medium: in vitro
Tested at: 0.8 µM
Setting: whole 60-bp probe, no competitor
Reading: higher = stronger binding
`GAAGTAACAGAACATCACGCTACAATCTTAATCTAGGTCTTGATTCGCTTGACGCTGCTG` gave a fluorescence intensity of 627 a.u.
With `GAAAGCACAGATGGTCCCGTGGCACGTACCATCTAGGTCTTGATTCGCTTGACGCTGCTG` the fluorescence intensity was 1280 a.u.
The fluorescence intensity of `GAACAAGATAATGGTGACGAAAATATTATGCAATAGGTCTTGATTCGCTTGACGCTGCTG` is reported as 544 a.u.
`CTATTATCTATAGCTGGTGATGCCTTGTTGTAGTTCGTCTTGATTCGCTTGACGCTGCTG` has a fluorescence intensity of 549 a.u.
`GAATTATTGCCCTCAGCCGTGCCAATAAGAATATAGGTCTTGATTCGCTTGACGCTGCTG` has a fluorescence intensity of 500 a.u.
For `GAACCAAAAAGTCAGCACGTGATCTGCTAAGAATAGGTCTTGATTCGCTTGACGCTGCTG`, the fluorescence intensity was 22100 a.u.
`CTACCCATTATTATATTCGTGACAGTTCGTAACTTCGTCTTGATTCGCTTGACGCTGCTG` has a fluorescence intensity of 559 a.u.
The fluorescence intensity of `CTAAGCAAGCCACGCCATGTGATTAACCTTGCTTTCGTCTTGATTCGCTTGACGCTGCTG` is reported as 1680 a.u.
For `GAATCGGGAGATTTTCAGGAGATTTTAAGGTTTTAGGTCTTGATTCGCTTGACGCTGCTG`, the fluorescence intensity was 496 a.u.
The fluorescence intensity of `GAAATAAGAAACATCCATGTGATAAAACTCCGCTAGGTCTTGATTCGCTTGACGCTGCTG` is reported as 859 a.u.
With `CTAACATTCAAAGAGTTCGTGACCAGTTATTGCTTCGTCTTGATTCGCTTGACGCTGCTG` the fluorescence intensity was 1120 a.u.
With `CTAAGAGTGGCTGATCATGTGTAATAGGCGAATTTCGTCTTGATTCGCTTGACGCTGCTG` the fluorescence intensity was 956 a.u.
`CTATTTTGATTTACTCACATGCTTAGTAAATGATTCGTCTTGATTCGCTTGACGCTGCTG` has a fluorescence intensity of 1470 a.u.
`GAAATGGATTCCTATACCACGAGGAGAACTAGTTAGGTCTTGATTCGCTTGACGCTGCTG` has a fluorescence intensity of 597 a.u.
`CTACACATGAGTCGTCGCACGCCAGTAAATCTATTCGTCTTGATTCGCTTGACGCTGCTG` has a fluorescence intensity of 545 a.u.
With `GAATGTTTTGTTTAAAACGTGTATTGATGGTGTTAGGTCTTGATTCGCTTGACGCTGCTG` the fluorescence intensity was 588 a.u.
`TGTACGAAGCTATGCAACATCAGTATAGTAGTTAGGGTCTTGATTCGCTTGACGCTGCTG` has a fluorescence intensity of 519 a.u.
The fluorescence intensity of `CTAGAACGCAAAGAGTGTGTGACACGAAATTCATTCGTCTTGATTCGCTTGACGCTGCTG` is reported as 804 a.u.
`GAACTACTGCCTTGGTCGGTCACCATTAAACTCTAGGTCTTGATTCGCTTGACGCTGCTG` has a fluorescence intensity of 526 a.u.

Sample 2
Target: Histone acetyltransferase KAT6A, winged helix 2, GST fusion (KAT6A, Homo sapiens, UniProt Q92794, residues 85-181)
Method: protein binding microarray
Molecule type: double-stranded DNA, one strand shown
Medium: in vitro
Tested at: not given
Setting: 8-mer, flanks averaged, mean of 2 arrays, mostly near background
Relative to: not given
Reading: higher = stronger binding
Residues (chain): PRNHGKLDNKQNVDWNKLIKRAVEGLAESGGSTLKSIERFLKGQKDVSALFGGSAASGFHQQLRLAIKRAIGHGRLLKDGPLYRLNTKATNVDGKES
`AGGCCCAC` gave an E-score of -0.0293.
`CAATAAGG` gave an E-score of -0.258.
`CCTGGGGC` has an E-score of 0.11.
`CACCGGCC` has an E-score of 0.00655.
`GACTAATA` has an E-score of -0.0378.
For `AAAGTAGT`, the E-score was -0.174.
With `CACAAAAG` the E-score was 0.26.
`ACTGAGCC` has an E-score of 0.13.
With `CCTCGTCG` the E-score was 0.0714.
`ACACAAAG` gave an E-score of 0.0395.
`AGAATCGA` gave an E-score of -0.0263.
`ACTTCGCC` gave an E-score of 0.0853.
With `AGGCATTA` the E-score was -0.0769.
`ATTAGTGC` gave an E-score of 0.166.
`CAAGACGA` gave an E-score of -0.00175.
For `AACGCCGG`, the E-score was 0.0704.
The E-score of `ATATAGGC` is reported as -0.0767.
With `CATCAGAG` the E-score was 0.0154.
The E-score of `AACCCTAT` is reported as -0.0282.
With `AGCCGGAT` the E-score was 0.231.
For `GGTACGTA`, the E-score was -0.248.
`ACACCCGA` gave an E-score of 0.145.

Sample 3
Target: RING finger protein unkempt homolog, zinc fingers 1-6, GST-SBP tag (UNK, Homo sapiens, UniProt Q9C0B0, residues 30-357)
Method: RNA Bind-n-Seq
Molecule type: RNA
Medium: in vitro
Tested at: not given
Setting: RNA with constant flanks, ends assumed
Relative to: input RNA pool
Reading: higher = stronger binding
Residues (chain): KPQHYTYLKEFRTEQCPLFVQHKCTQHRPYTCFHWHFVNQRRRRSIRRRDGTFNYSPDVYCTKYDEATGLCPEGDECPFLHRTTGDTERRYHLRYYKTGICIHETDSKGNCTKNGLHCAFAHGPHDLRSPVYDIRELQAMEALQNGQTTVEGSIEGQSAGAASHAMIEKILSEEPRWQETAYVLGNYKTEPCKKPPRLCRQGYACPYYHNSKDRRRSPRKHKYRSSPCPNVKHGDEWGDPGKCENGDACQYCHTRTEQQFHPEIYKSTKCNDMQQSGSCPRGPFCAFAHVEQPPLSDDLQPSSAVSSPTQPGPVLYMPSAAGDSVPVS
`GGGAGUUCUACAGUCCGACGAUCGACUAGACGUUUUGGAUUUACGAUUCUAUUUUGUCGUUCGGUUGGUGGAAGAUGUGCUCGCCGCUCUAUUUUCCAUGACAGAUAGUGACGACACUACGUGCAAAAGGUAUAUAAAGAUGACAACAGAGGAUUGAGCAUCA` has a bound/input enrichment of 0.269 ratio.
`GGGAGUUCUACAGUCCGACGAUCAAAGAUUGAUCUGUGGGCUGGUGAACUUAUCUGGGUCCCAGUCCGAGCAGCAGAGGAGAUCCGCACAGCGCUUGCUGGAGAAUGAUAUCUGUCAAAAGAAACACUUGGAGAGCACUGAGUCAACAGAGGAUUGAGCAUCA` gave a bound/input enrichment of 0.103 ratio.
`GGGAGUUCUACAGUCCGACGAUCCCGUAGGGGCACAGAGAGCUUAGAUCACCUUGCUGGUCUCUCACAUUAUUACCAUGCUGAUACCCGCUAUAGACACUUCCCCAAGUCUGAAAAGUAUAGCAUCAGUAGACUCACCCUGGACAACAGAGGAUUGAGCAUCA` gave a bound/input enrichment of 0.551 ratio.
For `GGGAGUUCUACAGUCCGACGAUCUCUAAAAGGAAAAAAAAGUAGUGUAUUUUAUAUUUCCAUAUGCUAAUGACAUGUCUGUAAUCCGUCUUCAGUGUUCCAUAAGAAGAGAGUGAUGGUACAAGUAUCCCUAAGUAUCACUUUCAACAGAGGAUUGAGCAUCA`, the bound/input enrichment was 0.609 ratio.
`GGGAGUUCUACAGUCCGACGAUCGGUCCUGGCCCCUUACAAGAGAGAUCUCUCUUUGAGAAAAAGAGAGGCGCUCCUCCAAGCCGCAAUAUUGAAGACUUCCAUGGACUCUUACCGAAGGGUUAUCCCCAUCUGUGCUCUAUACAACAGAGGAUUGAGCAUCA` gave a bound/input enrichment of 0.0943 ratio.
For `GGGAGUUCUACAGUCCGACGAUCGACCAGACUCCAAAAUGGAAACCAGCCAAUCUAAAAGAUGUUACGGAUGAAGACUUGAACCGUUACUUUAAAUCUCUGGGAAGCAGUGAUUUGAAAUUCUAAAGUUUAUUUUGGAGCAAACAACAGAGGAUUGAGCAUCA`, the bound/input enrichment was 0.13 ratio.
`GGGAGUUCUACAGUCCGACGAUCGAUCUAAAAAUGGGAAUGAAGUUUGUCAGUGAUGAACAUUAUGAUGAAAACGAAGAUGACUCCGUUUCACAUGUAGAUGGUUCCGUAAUUUCCAGGAGGGAGUGGUAUGUUUAGCAACCACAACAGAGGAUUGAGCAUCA` has a bound/input enrichment of 0.21 ratio.
`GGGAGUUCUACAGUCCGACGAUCUCCACCUCAAGGUCUUUGCAAAGCCCAAAAUCACCUAUGUAGAGAAUCAGACGGCCAUGGAACCCGAGGAGCAAGUCACUCUGACCUGUGAAGCCUCCGGAGACCCCAUCCCCUCCAUCACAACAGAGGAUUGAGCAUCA` has a bound/input enrichment of 0.0778 ratio.

Sample 4
Target: Interferon regulatory factor 3, full length, phosphomimetic (IRF3, Homo sapiens, UniProt Q14653, residues 1-427, S386D/S396D/S398D/S402D/T404D/S405D)
UniProt Q14653, sequence (whole entry, unmodified, looked up): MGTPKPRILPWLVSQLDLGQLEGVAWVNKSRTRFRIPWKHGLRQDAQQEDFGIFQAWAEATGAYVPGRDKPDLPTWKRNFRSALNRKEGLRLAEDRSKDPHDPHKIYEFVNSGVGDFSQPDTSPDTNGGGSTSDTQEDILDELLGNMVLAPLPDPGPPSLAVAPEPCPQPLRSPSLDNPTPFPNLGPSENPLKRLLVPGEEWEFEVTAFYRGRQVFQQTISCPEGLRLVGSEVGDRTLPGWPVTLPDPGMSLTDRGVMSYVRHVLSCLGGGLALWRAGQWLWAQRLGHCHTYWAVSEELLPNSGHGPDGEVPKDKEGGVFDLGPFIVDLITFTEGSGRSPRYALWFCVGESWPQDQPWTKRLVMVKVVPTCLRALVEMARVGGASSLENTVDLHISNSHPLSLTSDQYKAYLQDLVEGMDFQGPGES
Method: protein-binding microarray
Molecule type: double-stranded DNA, one strand shown
Medium: in vitro
Tested at: 2540 nM top
Setting: 60-bp whole probe
Together with: salmon DNA 0.4 mg/ml
Relative to: random background probes
Reading: higher = stronger binding
Shared flanks, not repeated: GCCTAGCAC … GTCTTGATTCGCTTGACGCTGCTG
`TTAGGACTGGCTCTCGGTTAGTGCTAG`: “fitted relative affinity” -0.938 z-score.
`GACGGTTTTGGTATCGGGACGTGCTAG`: “fitted relative affinity” 3.69 z-score.
Under “fitted relative affinity”, `TTAGGTTTCGGTCTCGGATAGTGCTAG` is recorded as 8.46 z-score.
For `TTAGGTTTCGAGTATCGGTTAGTGCTA`, “fitted relative affinity” read 3.35 z-score.
For `TCTTTTTATGCTTTCTTTAAGTGCTAG`, “fitted relative affinity” read 1.57 z-score.
For `AACGGACTGGGGTTTCGGGACGTGCTA`, “fitted relative affinity” read 0.676 z-score.
For `TCACATATACACTGTGTATCTGTGCTA`, “fitted relative affinity” read 0.513 z-score.
Under “fitted relative affinity”, `GACGATTTCGGGTATCGAGAGGTGCTA` is recorded as 1.71 z-score.
Under “fitted relative affinity”, `TTAGGTATCGGGTTTCGGTGAGTGCTA` is recorded as 3.05 z-score.
`TTCTAAATATCTTTGTTGAAGTGCTAG` — result for “fitted relative affinity”: 0.407 z-score.
`TCACTTTTCTTTACTGAACTGTGCTAG` — result for “fitted relative affinity”: 3.24 z-score.
For `GACGGAATGGGTATCGGGACGTGCTAG`, “fitted relative affinity” read 0.099 z-score.
`TTAGGTATCGGTTGCGGTTAGTGCTAG`: “fitted relative affinity” 2.97 z-score.
`CTGTTTCTACTGTCTGTTTCCGTGCTA`: “fitted relative affinity” 2.45 z-score.
`TTAGGTATCGGTCTCAGTTAGTGCTAG` — result for “fitted relative affinity”: 3.96 z-score.
`GACGGTTCCCTTTTCGTGACGTGCTAG` — result for “fitted relative affinity”: 6.32 z-score.
For `GACAGACTGGGTATCGGGACGTGCTAG`, “fitted relative affinity” read -0.04 z-score.
`TTAGGTCTCGGTGTCGGTTAGTGCTAG`: “fitted relative affinity” 0.877 z-score.
Under “fitted relative affinity”, `TCATTCTCCTATTTAAGACTGTGCTAG` is recorded as 4.17 z-score.

For quick reference, copied from above (sample 2):
For `AACGCCGG`, the E-score was 0.0704.
The E-score of `ATATAGGC` is reported as -0.0767.
With `CATCAGAG` the E-score was 0.0154.
The E-score of `AACCCTAT` is reported as -0.0282.
